{"data": "Assay results collected from several papers", "note": "A part holds a random share of what one study measured."}
{"data": "Series 1", "target": "Sal-like protein 4, full length isoform A (SALL4, Homo sapiens, UniProt Q9UJQ4, residues 1-1053)", "method": "universal PBM", "molecule type": "double-stranded DNA, one strand shown", "sample": "in vitro", "tested at": "600 nM", "notes": "8-mer, flanks averaged, mean of replicates", "direction": "higher = stronger binding", "chain of UniProt Q9UJQ4 (whole entry, looked up)": "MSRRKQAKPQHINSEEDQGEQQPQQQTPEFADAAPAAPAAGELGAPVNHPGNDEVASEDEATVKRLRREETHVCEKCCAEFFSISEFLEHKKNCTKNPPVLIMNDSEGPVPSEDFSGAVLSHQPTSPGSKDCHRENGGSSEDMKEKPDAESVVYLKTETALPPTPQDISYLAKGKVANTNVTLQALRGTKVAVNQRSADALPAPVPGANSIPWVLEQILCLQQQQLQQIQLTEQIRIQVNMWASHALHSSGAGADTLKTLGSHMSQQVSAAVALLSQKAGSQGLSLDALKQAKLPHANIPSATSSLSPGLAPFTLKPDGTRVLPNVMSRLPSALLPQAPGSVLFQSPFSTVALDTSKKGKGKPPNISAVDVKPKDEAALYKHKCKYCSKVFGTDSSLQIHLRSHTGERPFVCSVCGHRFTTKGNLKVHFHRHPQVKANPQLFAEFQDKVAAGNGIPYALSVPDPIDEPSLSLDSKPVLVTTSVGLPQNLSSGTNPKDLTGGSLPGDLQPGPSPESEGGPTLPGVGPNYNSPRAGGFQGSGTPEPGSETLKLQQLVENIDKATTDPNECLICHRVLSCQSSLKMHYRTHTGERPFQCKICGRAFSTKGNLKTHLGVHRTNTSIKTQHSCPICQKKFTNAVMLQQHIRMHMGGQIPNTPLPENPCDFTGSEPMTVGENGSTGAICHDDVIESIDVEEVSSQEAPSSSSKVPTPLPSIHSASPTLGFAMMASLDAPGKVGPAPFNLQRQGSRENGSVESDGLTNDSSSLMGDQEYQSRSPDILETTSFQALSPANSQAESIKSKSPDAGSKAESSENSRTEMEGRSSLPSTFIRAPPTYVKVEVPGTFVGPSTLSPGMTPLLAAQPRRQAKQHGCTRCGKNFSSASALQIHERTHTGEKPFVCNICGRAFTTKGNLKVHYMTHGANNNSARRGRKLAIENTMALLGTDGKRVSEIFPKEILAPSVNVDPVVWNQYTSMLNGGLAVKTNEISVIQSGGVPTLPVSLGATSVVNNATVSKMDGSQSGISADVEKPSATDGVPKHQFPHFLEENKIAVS"}
{"Strand": "CGAGACGA", "E-score": -0.163}
{"Strand": "AACCATTC", "E-score": 0.0885}
{"Strand": "GTGGTCTA", "E-score": -0.11}
{"Strand": "GAGCAGAA", "E-score": 0.0583}
{"Strand": "GGTAACCA", "E-score": -0.0937}
{"Strand": "CTAATGTA", "E-score": 0.21}
{"Strand": "AGGAATGC", "E-score": -0.0402}
{"Strand": "CACGCTCG", "E-score": -0.292}
{"Strand": "CTTGTGTC", "E-score": -0.131}
{"Strand": "GGTTTTTA", "E-score": 0.11}
{"Strand": "AAAACGTA", "E-score": 0.15}
{"Strand": "ATTCACGC", "E-score": 0.00173}
{"Strand": "ACCATGGT", "E-score": -0.0704}
{"Strand": "AGTCCTAG", "E-score": -0.147}
{"Strand": "GGTCAGAA", "E-score": -0.0284}
{"Strand": "CGGGCGTA", "E-score": -0.262}
{"Strand": "ATACAACC", "E-score": 0.0943}
{"Strand": "AACGTCCT", "E-score": 0.0937}
{"Strand": "CATGCTCA", "E-score": 0.0486}
{"Strand": "CACGCCGG", "E-score": -0.281}
{"Strand": "ATATCCAA", "E-score": 0.226}
{"Strand": "ACCCTCGA", "E-score": -0.207}
{"Strand": "AAGTTTTC", "E-score": 0.174}
{"Strand": "GCAAGTAC", "E-score": 0.0235}
{"Strand": "ATGGAGTG", "E-score": -0.0709}
{"data": "Series 2", "target": "RNA binding protein fox-1 homolog 2, RRM domain, GST-SBP tag (RBFOX2, Homo sapiens, UniProt O43251-10, residues 100-194)", "method": "RNA Bind-n-Seq", "molecule type": "RNA", "sample": "in vitro", "tested at": "365 nM", "notes": "natural RNA segment, single round, ends assumed", "reference": "no-protein control", "direction": "higher = stronger binding", "all sequences stand within": "GGGAGUUCUACAGUCCGACGAUC … UGGAAUUCUCGGGUGCCAA", "Construct (chain)": "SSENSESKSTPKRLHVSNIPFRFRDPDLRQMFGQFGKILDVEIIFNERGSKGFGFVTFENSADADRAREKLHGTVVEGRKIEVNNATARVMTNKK"}
{"Strand": "AAGUAAUUACUAAAUGCACUUAAACCAGGGCAGGAAGGAAUGGAAGGAUGGAGCUAGAAAGCUCAGAGUGGGCCAGAGCAGGGGUGUGACACUUGCAAAGACAGGGCUCU", "RBNS enrichment (R)": 0.816}
{"Strand": "UUUGAGUUUUGCUCUUGUCGCCCAGGCUGGAGUGCAAUGGCGUGAUCUCAGCUCACUGGCAACAUCUGCCUCCCGGGUUCAAAUGAUUCUCCUGCCUCAGUCUCCUGAGU", "RBNS enrichment (R)": 0.251}
{"Strand": "GUAAUCUACCACCAAGCUUGUGGACUUCACCCCAACAAAAUUGUAAGCGUUGUUAGGUUUUUGUGUAAGAUUCUUGCUGUAGCGUGGAUAGCUGUGAUUGGUGAGUCAAC", "RBNS enrichment (R)": 1.04}
{"Strand": "UUUUCAAUAAUUCCUUUUUACUUCUAGGAAGUCUCAAAAGACCAUCUUAAAUUAUUAUAUGUUUGGACAAUUAGCAACAAGUCAGAUAGUUAGAAUCGAAGUUUUUCAAA", "RBNS enrichment (R)": 0.648}
{"Strand": "AGCAGAGCUCCUGGGAAAAGAGACUGGAAGUGGUUCAGGAUAAAGAGAUCCAUGGUGGGCAGGGCUGUUAGGUCACAGAGCUCUAGAAGCAGCUGGACUUGAACCCACAA", "RBNS enrichment (R)": 0.83}
{"Strand": "GAAUUUAUAAAAUGUGUAUUGCUCAAAAAAAAAAAAAAGGUUUGCAAAUAUUUGCACAUAAGAUCUUCACUGUUCAUUUCCAGUGAGUGUGUUUGCAGACUAAACACAAG", "RBNS enrichment (R)": 1.02}
{"Strand": "CUAUAGCGGAAAUUCUUAAUAAUGUUUGAAGAAGGGCCCCAUGAUUUCAUUUUGUGCUGAGCCCUCAAAAUUAUGUCUGUUUCGUGGUGGGAAAUAUCCUAUGUUUUCUU", "RBNS enrichment (R)": 0.437}
{"Strand": "AUAUGAUUUUCUUAUAAAACAGAAAAGAAUUAUAAGAAUAUAUUGAAAAUAAAAGAAUUGAAAGGUACUUGUUGAUAGAGUCAUAUAUUACUUAUUGGUAUGUAUACUGA", "RBNS enrichment (R)": 0.613}
{"data": "Series 3", "target": "Histone acetyltransferase KAT6A, winged helix 1, GST fusion (KAT6A, Homo sapiens, UniProt Q92794, residues 1-85)", "method": "protein binding microarray", "molecule type": "double-stranded DNA, one strand shown", "sample": "in vitro", "tested at": "not given", "notes": "8-mer, flanks averaged, mean of 2 arrays, mostly near background", "reference": "not given", "direction": "higher = stronger binding", "Residues (chain)": "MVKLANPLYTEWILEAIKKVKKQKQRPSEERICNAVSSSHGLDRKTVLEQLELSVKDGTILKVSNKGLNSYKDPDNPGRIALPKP"}
{"Strand": "TGGGTAAA", "E-score": -0.1}
{"Strand": "GTTCGGGA", "E-score": 0.0958}
{"Strand": "ACCTGTCT", "E-score": -0.154}
{"Strand": "CGAATCAA", "E-score": -0.149}
{"Strand": "CAGGGTTA", "E-score": -0.104}
{"Strand": "ATGGTTAC", "E-score": 0.0485}
{"Strand": "AAGACCGT", "E-score": 0.141}
{"Strand": "CATTATTC", "E-score": -0.155}
{"Strand": "CCCGTGGA", "E-score": 0.239}
{"Strand": "ATTAGTAC", "E-score": -0.0682}
{"Strand": "CTCATACC", "E-score": -0.19}
{"Strand": "ATTGTACG", "E-score": 0.00795}
{"Strand": "AATCCCCC", "E-score": -0.0534}
{"Strand": "CGCCGTCC", "E-score": 0.415}
{"Strand": "CGTCCCAC", "E-score": 0.129}
{"Strand": "GCAATGAA", "E-score": -0.0521}
{"Strand": "CCCGACGA", "E-score": 0.0906}
{"Strand": "CGTGGGCA", "E-score": -0.0538}
{"Strand": "CACGTCAG", "E-score": -0.174}
{"Strand": "TACGTGGA", "E-score": 0.0587}
{"Strand": "CGGCTGCC", "E-score": 0.268}
{"data": "Series 4", "target": "RING finger protein unkempt homolog, zinc fingers 1-6, GST-SBP tag (UNK, Homo sapiens, UniProt Q9C0B0, residues 30-357)", "method": "RNA Bind-n-Seq", "molecule type": "RNA", "sample": "in vitro", "tested at": "not given", "notes": "RNA with constant flanks, human and mouse sites, ends assumed", "reference": "input RNA pool", "direction": "higher = stronger binding", "all sequences stand within": "GGGAGUUCUACAGUCCGACGAUC … CAACAGAGGAUUGAGCAUCA", "chain of UniProt Q9C0B0 (30-357, looked up)": "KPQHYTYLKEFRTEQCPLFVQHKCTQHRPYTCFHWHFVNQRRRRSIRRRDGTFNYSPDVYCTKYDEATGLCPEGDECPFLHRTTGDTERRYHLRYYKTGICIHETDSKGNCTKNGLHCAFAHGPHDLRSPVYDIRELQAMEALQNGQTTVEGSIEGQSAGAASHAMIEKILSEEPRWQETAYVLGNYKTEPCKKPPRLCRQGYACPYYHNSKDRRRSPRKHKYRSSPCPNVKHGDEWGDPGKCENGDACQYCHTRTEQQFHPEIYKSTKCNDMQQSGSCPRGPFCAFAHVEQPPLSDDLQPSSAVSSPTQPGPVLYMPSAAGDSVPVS"}
{"Strand": "GGGUUAUACCAGUAUAAGAACAUUUGUCAACAGGUGAACAUAAAAUCUCUGGAGGAUGUUGUUAGGGCAUAUUUGAAAAUGGCAGAGGAAAAAACUGAAGCUGCUAAAGAAGAAUCUCAG", "bound/input enrichment [ratio]": 0.177}
{"Strand": "GAAUAUUUGUGUUGUAUGCUUGUUCCAACCACCGCUUGUGUGAGCAUUUUUGUGGCUUGUACAGAAAGUACACUUUUAAAUUGUCUCUUGCAUCACUAAAAUUUUUUUAAAAUGAGCAUA", "bound/input enrichment [ratio]": 0.649}
{"Strand": "GAACAGGAGCAGCAUAGGCUGUUUGAGCUUUGGGGAAAUGAACUUUGCUUUUUAUAUUUAACUAGGAUACUUUUAUAUGAUGGGUGCUUUGAGUGUGAAUGCAGCAGGCUCUCUUGUUUC", "bound/input enrichment [ratio]": 63.1}
{"Strand": "UCCCUUUAUCCACAGUUUAUGUUUCAUUUAAGAAGAUCUUCUUUCCUGCAAGUUUUUAACAAUAGUCCUGAUGAGAGUUCAUAUUAUCGUCACCAUUUUAUGCGUCAAGAUCUGACCCAG", "bound/input enrichment [ratio]": 2.25}
{"Strand": "CAACUUGGGGAAGAUAUCCGACGAAUUCCCAUUCAUAAUGAAGACAUUACUUACGAUGAAUUAGUGCUAAUGAUGCAGCGAGUAUUCAGAGGAAAGCUUCUGAGUAAUGAUGAAGUUACA", "bound/input enrichment [ratio]": 0.786}
{"Strand": "AAAGCUCCUAUUCUGAUUGCUACAGAUGUGGCCUCCAGAGGGCUAGAUGUGGAAGAUGUGAAAUUUGUCAUCAAUUAUGACUACCCUAACUCCUCAGAGGAUUAUAUUCAUCGAAUUGGA", "bound/input enrichment [ratio]": 0.13}
{"Strand": "CUGCGCUCGCUGGCCUUCAGGAAGGAGUUCCAGGACGCUAGCCUCCGCAGUAGCACCUUUAGCUCCUUUGACAAUGACAUAGAGAACCACCUCAUCGGUGGGCACAAUGUGGUUCAGCCC", "bound/input enrichment [ratio]": 1.43}
{"Strand": "UACUUACCUCUUGCAAAAAAAAGAAAAAAGAAAAAAGUUCAUUUAUUCAUUCUGUUUCUAUAUAGCAAAACUGAAUGUCAAAAGUACCUUCUGUCCACACACACAAAAUCUGCAUGUAUU", "bound/input enrichment [ratio]": 0.471}
